Measurements collected from several papers.
Compare with care: the assays were run in different laboratories. ± gives the spread as reported.

With CN1C(=O)[C@@H](Cc2ccc(O)c(I)c2)NC(=O)CNC(=O)[C@H](Cc2ccc3ccccc3c2)NC(=O)[C@H](CCCNC(=N)N)NC(=O)[C@H]1CCCNC(=O)c1ccc(CNC(=O)CN2CCN(CC(=O)O)CCN(CC(=O)O)CCN(CC(=O)O)CC2)cc1 [lutetium-177 labelled] the tissue uptake was 3.27 ± 0.41 %ID/g (measured: 177Lu radioactivity; female CB-17 SCID mice, Daudi xenograft, tumor; intravenous, 0.16 nmol per mouse, 48 h).
With CCCC[C@H](NC(=O)CN1CCC(NC(=O)CN2CCN(CC(=O)O)CCN(CC(=O)O)CCN(CC(=O)O)CC2)CC1)C(=O)N[C@H]1CC(=O)NCCCC[C@@H](C(N)=O)NC(=O)[C@H](Cc2c[nH]c3ccccc23)NC(=O)[C@H](CCCNC(=N)N)NC(=O)[C@@H](Cc2ccccc2)NC(=O)[C@H](Cc2c[nH]cn2)NC1=O [gallium-68 labelled] the tissue uptake was 0.4 ± 0.1 %ID/g (C57BL/6J mice male B16-F10 tumour, bone; 1 h post injection, unblocked).
The tissue uptake of N=C(N)NCCC[C@@H]1NC(=O)[C@H](CCCCNC(=O)CON=C[C@H](F)[C@@H](O)[C@H](O)[C@H](O)CO)NC(=O)[C@@H](Cc2ccc(O)cc2)NC(=O)[C@H](CC(=O)O)NC(=O)CNC1=O [fluorine-18 labelled] is reported as 0.8 ± 1.09 %ID/g (nude mice U-87 MG tumour, brain; intravenous, 0.5 h).
The tissue uptake of CCCC[C@@H]1NC(=O)[C@@H](NC(=O)[C@H](CCC(=O)O)NC(=O)CNC(=O)CN2CCN(CC(=O)O)CCN(CC(=O)O)CCN(CC(=O)O)CC2)CCCCNC(=O)C[C@@H](C(N)=O)NC(=O)[C@H](C(C)C)NC(=O)[C@@H]2CCCN2C(=O)[C@H](CCCNC(=N)N)NC(=O)CNC(=O)[C@H](Cc2c[nH]c3ccccc23)NC(=O)[C@H](CCCNC(=N)N)NC(=O)[C@@H](Cc2ccccc2)NC(=O)[C@H](Cc2c[nH]cn2)NC(=O)[C@H](CCC(=O)O)NC1=O [gallium-67 labelled] is reported as 0.05 ± 0.02 %ID/g (C57 mice with B16/F1 melanoma, heart; intravenous, 4 h).
The tissue uptake of CC(C)[C@H](NC(=O)[C@@H]1CCCN1C(=O)[C@H](CCCNC(=N)N)NC(=O)[C@H](CS)NC(=O)[C@H](Cc1c[nH]c2ccccc12)NC(=O)[C@H](CCCNC(=N)N)NC(=O)[C@@H](Cc1ccccc1)NC(=O)[C@H](Cc1c[nH]cn1)NC(=O)[C@H](CCC(=O)O)NC(=O)[C@H](CS)NC(=O)[C@H](CS)NC(=O)[C@@H]1CC(=O)N[C@@H](CCCNC(=N)N)C(=O)NCC(=O)N[C@@H](CC(=O)O)C(=O)N[C@H](Cc2ccc(O)cc2)C(=O)N1)C(N)=O [technetium-99m labelled] is reported as 0.24 ± 0.03 %ID/g (C57 mice B16/F1 melanoma female, muscle; iv, 2 h, with: NDP-MSH 10 µg co-injected).
The tissue uptake of O=C([O-])c1cccc(CN(CCN(Cc2cn(Cc3ccccc3)nn2)Cc2cccc(C(=O)[O-])n2)Cc2cn(Cc3ccccc3)nn2)n1.[64Cu+2] is reported as 5.93 %ID/g (healthy athymic nude mice, stomach; intravenous, 1 h).
CCCC[C@H](NC(=O)CNC(=O)CNC(=O)CN1CCN(CC(=O)O)CCN(CC(=O)O)CCN(CC(=O)O)CC1)C(=O)N[C@H]1CC(=O)NCCCC[C@@H](C(N)=O)NC(=O)[C@H](Cc2c[nH]c3ccccc23)NC(=O)[C@H](CCCNC(=N)N)NC(=O)[C@@H](Cc2ccccc2)NC(=O)[C@H](Cc2c[nH]cn2)NC1=O [gallium-67 labelled] gave a tissue uptake of 8.44 ± 0.11 %ID/g (female C57 mice, B16/F1 melanoma, kidneys; intravenous, 0.037 MBq, 4 h).
The tissue uptake of O=C([O-])CN1CCN(CC(=O)[O-])CCN(CC(=O)[O-])CCN(CC(=O)[O-])CC1.[64Cu+2] is reported as 0.17 %ID/g (healthy athymic nude mice, skin; intravenous, 24 h).
The tissue uptake of CCCC[C@H](NC(=O)CNC(=O)CNC(=O)CN1CCN(CC(=O)O)CCN(CC(=O)O)CC1)C(=O)N[C@H]1CC(=O)NCCCC[C@@H](C(N)=O)NC(=O)[C@H](Cc2c[nH]c3ccccc23)NC(=O)[C@H](CCCNC(=N)N)NC(=O)[C@@H](Cc2ccccc2)NC(=O)[C@H](Cc2c[nH]cn2)NC1=O [gallium-67 labelled] is reported as 1.23 ± 0.35 %ID (C57 mice, female, B16/F1 melanoma, intestines; intravenous, 0.037 MBq, 24 h).
The tissue uptake of N#C[C@@H]1CCCN1C(=O)CNC(=O)c1ccnc2ccc(OCCCN3CCN(C(=O)CCc4ccc5c(c4)CN4CCN6CC(=O)[O][68Ga-]([O]C(=O)C4)([O]5)[O]c4ccc(CCC(=O)N5CCN(CCCOc7ccc8nccc(C(=O)NCC(=O)N9CCC[C@H]9C#N)c8c7)CC5)cc4C6)CC3)cc12 is reported as 3.05 ± 0.61 %ID/g (BALB/c nude mice, U-87 MG xenograft, tumour; 1 h, blocked 60 min, with: DOTA-FAPI-04 40 nmol co-injected).
NC12CNCCNCC(NCc3ccc(CNC(=O)CCCC(=O)NCc4ccc(-c5nncnn5)cc4)cc3)(CNCCNC1)CNCCNC2.[64Cu+2] gave a tissue uptake of 0.99 ± 0.24 %ID/g (athymic nude mice, SW1222 xenograft, lung; 24 h post-injection, 24 h pretargeting interval, with: huA33-TCO pretargeting).
O=C([O-])CN1CCN(CC(=O)[O-])CCN(CC(=O)NCCc2ccc3c(c2)C2C=CCC2C(c2cc4c(cc2Br)OCO4)N3)CCN(CC(=O)[O-])CC1.[111In+3] (stereo not shown) gave a tissue uptake of 4.13 ± 0.39 %ID/g (mice with Hec50 tumour xenograft, urinary bladder; 0.5 h).
The tissue uptake of O=C(NCC1OC2CCC=CCCC2O1)c1ccc([18F])nc1 (stereo not shown) is reported as 0.78 ± 0.24 %ID/g (ex vivo biodistribution; BALB/c nude mice, female, LS174T xenograft, tumour; intravenous, 7.4 MBq, 60 min, with: unmodified CC49 antibody 24 h before).

Excerpt of the above:
CCCC[C@H](NC(=O)CNC(=O)CNC(=O)CN1CCN(CC(=O)O)CCN(CC(=O)O)CCN(CC(=O)O)CC1)C(=O)N[C@H]1CC(=O)NCCCC[C@@H](C(N)=O)NC(=O)[C@H](Cc2c[nH]c3ccccc23)NC(=O)[C@H](CCCNC(=N)N)NC(=O)[C@@H](Cc2ccccc2)NC(=O)[C@H](Cc2c[nH]cn2)NC1=O [gallium-67 labelled] gave a tissue uptake of 8.44 ± 0.11 %ID/g (female C57 mice, B16/F1 melanoma, kidneys; intravenous, 0.037 MBq, 4 h).
